Experimental data collected from several papers.
Every numbered part comes from another study and shows a few of its results, in no order. Changes are numbered by the printed parent chain.

Set 1
Target: CCND3, cyclin fold, Cln2 fusion (human)
Technique: yeast growth competition, sequencing
Sample: yeast
Setting: weak parent motif
Reference: not given
Direction: higher = stronger binding
Starting sequence: FOXM1 docking peptide (human); PHLARPIKVESPP; partner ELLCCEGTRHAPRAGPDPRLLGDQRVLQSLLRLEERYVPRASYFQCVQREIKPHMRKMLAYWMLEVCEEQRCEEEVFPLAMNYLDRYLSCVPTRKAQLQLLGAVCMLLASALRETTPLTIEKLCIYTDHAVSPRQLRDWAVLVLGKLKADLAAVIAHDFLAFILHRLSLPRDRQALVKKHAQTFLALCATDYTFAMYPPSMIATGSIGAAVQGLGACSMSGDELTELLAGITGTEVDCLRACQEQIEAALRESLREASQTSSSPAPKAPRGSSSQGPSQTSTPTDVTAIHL
`P12A` — result for “normalised enrichment score”: -0.772.
Under “normalised enrichment score”, `E10A` is recorded as -0.408.
Under “normalised enrichment score”, `K8A` is recorded as -0.0538.
`P1A` — result for “normalised enrichment score”: -0.388.
`H2A`: “normalised enrichment score” 0.0976.
For `P6A`, “normalised enrichment score” read -0.255.

Set 2
Target: Histone acetyltransferase KAT6A, winged helix 1, GST fusion (KAT6A, Homo sapiens, UniProt Q92794, residues 1-85)
Technique: protein binding microarray
Molecule type: double-stranded DNA, one strand shown
Sample: in vitro
Tested at: not given
Setting: 8-mer, flanks averaged, mean of 2 arrays, mostly near background
Reference: not given
Direction: higher = stronger binding
Construct (chain): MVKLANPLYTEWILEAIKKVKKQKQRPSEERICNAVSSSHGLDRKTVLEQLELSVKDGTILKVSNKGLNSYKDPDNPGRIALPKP
For `GTGCACTA`, the E-score was 0.0816.
The E-score of `CCTATCTA` is reported as -0.143.
`GACTCAGA` has an E-score of -0.158.
`AAGGATAG` has an E-score of -0.218.
`CTGGGAGA` has an E-score of -0.164.
`CGGTAGCA` gave an E-score of -0.0107.
The E-score of `ACGAATCG` is reported as 0.0693.
For `AGGGGGAC`, the E-score was -0.112.
`AACCATGT` has an E-score of -0.0982.
`CGAAGATC` gave an E-score of -0.0982.
The E-score of `ACGGAAAA` is reported as 0.138.
`ACGAGGTC` has an E-score of -0.0163.
The E-score of `AGTGGAGG` is reported as -0.096.
With `CGTCTGAA` the E-score was -0.0787.
`AGTTTTTA` gave an E-score of -0.161.
`CGTTTCAC` gave an E-score of 0.0281.
The E-score of `AACTGTTA` is reported as 0.0439.
The E-score of `GATCAAGC` is reported as 0.022.
The E-score of `CAATCCAC` is reported as -0.202.
The E-score of `TGACAGAA` is reported as -0.0879.
`GAGTCAAC` gave an E-score of -0.162.
With `CTTTCCCC` the E-score was -0.154.
The E-score of `CACGTGAG` is reported as -0.139.

Set 3
Target: Ras GTPase-activating protein-binding protein 1, full length (G3BP1, Homo sapiens, UniProt Q13283)
UniProt Q13283, sequence (whole entry, looked up): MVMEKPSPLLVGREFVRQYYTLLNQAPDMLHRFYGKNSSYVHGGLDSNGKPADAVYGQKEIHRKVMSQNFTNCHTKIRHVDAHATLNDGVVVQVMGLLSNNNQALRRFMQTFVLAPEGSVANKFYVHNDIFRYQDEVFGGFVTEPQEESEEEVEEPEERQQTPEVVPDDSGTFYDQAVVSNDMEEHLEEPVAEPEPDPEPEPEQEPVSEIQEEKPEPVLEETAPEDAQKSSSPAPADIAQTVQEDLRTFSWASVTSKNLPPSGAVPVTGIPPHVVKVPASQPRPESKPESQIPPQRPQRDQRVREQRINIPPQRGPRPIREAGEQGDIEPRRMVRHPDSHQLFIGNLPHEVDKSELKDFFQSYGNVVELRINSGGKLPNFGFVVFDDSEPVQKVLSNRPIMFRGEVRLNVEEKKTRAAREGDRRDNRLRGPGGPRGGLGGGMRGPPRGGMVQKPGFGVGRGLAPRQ
Technique: RNA Bind-n-Seq
Molecule type: RNA
Sample: in vitro
Tested at: 200 nM
Setting: whole 134-nt RNA, ends assumed
Together with: 150 mM KCl
Reference: input library
Direction: higher = stronger binding
The log2 enrichment of `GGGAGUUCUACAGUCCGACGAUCGUCCUGUGCUACACAUCGUAUGUACCGAAUCGGGAAAAAAAGGGUUUUUUUGGGUGGGAAAGUAUUAUGUUACGCCGUUCGGAUCUGCACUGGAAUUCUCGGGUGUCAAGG` is reported as -0.0143.
`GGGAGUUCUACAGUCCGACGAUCUGGGAGGUGGAUUUUGUUAAUUUUUUUAGCUCAUUUCCAGGGGUGGGAAUUUUUUUUUAAUAUGUGUCAUGAAUAAAGUUGUUUUUGAAAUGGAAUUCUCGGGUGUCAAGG` has a log2 enrichment of 0.0843.
`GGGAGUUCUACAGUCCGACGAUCAGUCCUGUGCUACACAUCGUAUGUACCGAAUCGGGGUGGGGUGGGGUUUUUUUGGGGAAAGUAUUAUGUUACGCCGUUCGGAUCUGCACUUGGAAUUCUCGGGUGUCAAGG` has a log2 enrichment of 0.607.
`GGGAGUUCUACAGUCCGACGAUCAGUCCUGUGCUACACAUCGUAUGUACCGAAUCGGGGUUUGGGGAGGGGUUUUUGGGGAAAGUAUUAUGUUACGCCGUUCGGAUCUGCACUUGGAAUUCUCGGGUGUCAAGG` gave a log2 enrichment of 0.234.
For `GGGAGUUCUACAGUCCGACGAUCCCUCAAGUCCUGUGCUACACAUCGUAUGUACCGAAUCGGGUGGGUGGGGUGGAAAGUAUUAUGUUACGCCGUUCGGAUCUGCACUUCCAGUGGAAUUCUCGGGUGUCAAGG`, the log2 enrichment was 1.24.
With `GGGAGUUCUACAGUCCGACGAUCGUCCUGUGCUACACAUCGUAUGUACCGAAUCGGGGUGGGGUUUGGGGAAAAAAAGGGGAAAGUAUUAUGUUACGCCGUUCGGAUCUGCACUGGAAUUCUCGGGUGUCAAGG` the log2 enrichment was 0.415.
The log2 enrichment of `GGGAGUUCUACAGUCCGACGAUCCCUGUGCUACACAUCGUAUGUACCGAAUCGGGCCCCCCCGGCCCCCCCGGGCCCCCCCGGAAAGUAUUAUGUUACGCCGUUCGGAUCUGCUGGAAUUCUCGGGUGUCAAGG` is reported as 0.0746.
`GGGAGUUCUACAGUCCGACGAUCCAAGUCCUGUGCUACACAUCGUAUGUACCGAAUCGGGUGGGAGGGAAAAAAAGGGAAAGUAUUAUGUUACGCCGUUCGGAUCUGCACUUCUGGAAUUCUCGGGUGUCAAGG` has a log2 enrichment of 0.229.
`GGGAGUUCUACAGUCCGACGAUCUUCUGACUCAGAAUGUGCCAAAAAGGCUUUGGAACAACUUAAUGGAUUUGAACUAGCAGGAAGACCAAUGAAAGUUGGUCAUGUUACUGAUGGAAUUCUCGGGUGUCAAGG` gave a log2 enrichment of -1.45.
The log2 enrichment of `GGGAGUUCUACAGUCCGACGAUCCAAGUCCUGUGCUACACAUCGUAUGUACCGAAUCGGGAAAGGGAAAGGAAAGGGGAAAGUAUUAUGUUACGCCGUUCGGAUCUGCACUUCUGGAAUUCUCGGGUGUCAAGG` is reported as 0.17.

Set 4
Target: RNA binding protein fox-1 homolog 2, RRM domain, GST-SBP tag (RBFOX2, Homo sapiens, UniProt O43251-10, residues 100-194)
Technique: RNA Bind-n-Seq
Molecule type: RNA
Sample: in vitro
Tested at: 365 nM
Setting: natural RNA segment, single round, ends assumed
Reference: no-protein control
Direction: higher = stronger binding
Construct (chain): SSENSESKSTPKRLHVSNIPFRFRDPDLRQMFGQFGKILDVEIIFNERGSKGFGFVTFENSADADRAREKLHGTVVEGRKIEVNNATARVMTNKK
Under “RBNS enrichment (R)”, `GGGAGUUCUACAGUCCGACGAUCUAGAGGCCAUUGUCUUCUGUCCUGAUCAGGUGGCCUGGCUGUUUCUUUGGAUCCCUCUGUCCCAGAGCCACCCAGAACCCUGACUCUUGAGAAUCAAGAAAACACCCAGAUGGAAUUCUCGGGUGCCAA` is recorded as 0.309.
`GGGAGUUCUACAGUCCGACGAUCUCAGUGAUAGGCAUUGAGAUCAUGCAUUCGACCAUUUGUCCUGUUCUAAUUAUGAAGAGCGUACCAGAAGUCUGUAUGAUAUUAGUGUCAUAUUUCAUUCAAAUGCCAAUUGGAAUUCUCGGGUGCCAA` — result for “RBNS enrichment (R)”: 0.31.
`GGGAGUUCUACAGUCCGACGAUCGCCACAGAGUUAAGUGACCUCAGGUAACAUAAUGGUGAUGGUUGGCCAUUUGAGUCUUUGUAACCUAGGAAAGACAAAGGUCUGAUUCAGAUUGCAUGGGGGAUUUUUAAUGGAAUUCUCGGGUGCCAA` — result for “RBNS enrichment (R)”: 1.75.
Under “RBNS enrichment (R)”, `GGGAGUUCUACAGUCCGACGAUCCCUACAUCAAUUAGUUAUUGGACUUCACAAAGAUUUGCCGCUGUGGAUCAAACAGGACCACCUCCCUCUGCGUCAGCCAUUUAAAAUUGGGGGAGGGAAGAGAUCCAGUGUGGAAUUCUCGGGUGCCAA` is recorded as 0.398.
`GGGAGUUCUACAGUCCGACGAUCGUUGGUAACGUGCUGCCAGCACAGGGCUGGGUGAUACGUACACCCUAAGCCGGGGGUGCCUGGGGCUGGGGGGCGCUCCUUGCAAUGCCCCUCCAGCCACAGGGCAGUGAUGGAAUUCUCGGGUGCCAA` — result for “RBNS enrichment (R)”: 0.306.
`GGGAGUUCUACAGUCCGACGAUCUUUUAUUCCUAUUUAAUGUUAUUGACUAUAGCGGAUCUUUGAAAUCAGUGUUUUCCGUGUGAAUUUCCAACCUUGCACCCCGUUCCUUGUCCUUACUCUUGACUCCAUCCUGGAAUUCUCGGGUGCCAA` — result for “RBNS enrichment (R)”: 0.69.
`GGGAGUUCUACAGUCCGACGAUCGUAGUACUAAAUGGUAUCCUUAGAUUAAAAUUUUGUGCUUGAUAACAGCUGUUUUUUCUACAUUAGAAAUAAGAUGCCACACAAGGAACUACAUUCCAGAUUUAAAGAAAUGGAAUUCUCGGGUGCCAA` — result for “RBNS enrichment (R)”: 0.305.
`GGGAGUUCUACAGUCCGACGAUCGAAACAUGAAGAUAUUAAAAUGGCAGCUGGCUAACUGUCUCUUAAGCCACUAUGCAAUUUCUACCAAUGGAGAGAUUAGGGAAGCAAAUUAAGCCUCAUUCAGUAGGUCUUGGAAUUCUCGGGUGCCAA`: “RBNS enrichment (R)” 0.409.
Under “RBNS enrichment (R)”, `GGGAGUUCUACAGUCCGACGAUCAGUGGCGGUGGUGCGUAGAACAUUAUGCUAAGGCCCAGAACUGAUCAGAGAAUUUGUUCACCACCGUCUCCAGGCAGCAACGCCAAGGGCAAGUCUGAUCUCAGCACCCAUGGAAUUCUCGGGUGCCAA` is recorded as 0.427.
Under “RBNS enrichment (R)”, `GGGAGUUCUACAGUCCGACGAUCAAAAAAGGGGGUUUAAAUACUGUUGGCAUUUUUAUGGUUCCUUUAAAUGCCCUAGCUAUUCCCAGAGGGGUUUUUUUGUUUGUUUUUUUGGUUUUGAUUUUCUUUUUGUUUGGAAUUCUCGGGUGCCAA` is recorded as 4.99.
For `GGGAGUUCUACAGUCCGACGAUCCCAGGGCAGAGCCUCUCCUUGUACUUUGGCAGCCAUAGAAAGCGUGCUCAUUUUCUGUUUUCCUGUGUUAGGAAAAAACCACCUGUUUUCCAAGGGGAGAGGGCGGGGCCUGGAAUUCUCGGGUGCCAA`, “RBNS enrichment (R)” read 0.824.
Under “RBNS enrichment (R)”, `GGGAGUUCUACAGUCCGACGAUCCACUUAUGAUUUUGUAGACCAUGUGAAAUUUAAUAAGAUACCUUUUUUUUCCUUUCUUUGUGUGUAGUGCAGCAACAGUUUGGUCUGCAUUUGUUAGAAGUUUAACUCCUUGGAAUUCUCGGGUGCCAA` is recorded as 1.04.
